{"data": "Assay results collected from several papers", "note": "Parts stem from different laboratories: compare values within a part only. Positions count from the first letter of the parent shown."}
{"data": "Block 1", "target": "Prothrombin, mature alpha-thrombin (F2, Homo sapiens, UniProt P00734)", "technique": "aptamer microarray, sandwich", "molecule type": "DNA with 2'F-ANA", "medium": "in vitro", "tested at": "200 nM", "notes": "whole 15-mer aptamer, many near background", "with": "Cy3 exosite-II aptamer, 400 nM", "reading": "higher = stronger binding", "oligonucleotide": "GGTTGGTGTGGTTGG"}
{"Modification": "2'F-ANA at 1 3 4 5 9 11 12 13 15", "mean fluorescence intensity": "64 a.u."}
{"Modification": "2'F-ANA at 2 4 5 8 10 11 12 13 14 15", "mean fluorescence intensity": "47.7 a.u."}
{"Modification": "2'F-ANA at 3 4 5 7 8 9 11 13 15", "mean fluorescence intensity": "65.5 a.u."}
{"Modification": "2'F-ANA at 1 2 3 9 13 15", "mean fluorescence intensity": "217 a.u."}
{"Modification": "2'F-ANA at 1 2 12 13 15", "mean fluorescence intensity": "311 a.u."}
{"Modification": "2'F-ANA at 1 2 4 7 10 15", "mean fluorescence intensity": "51.8 a.u."}
{"Modification": "2'F-ANA at 2 4 5 6 7 8 10 11 13 15", "mean fluorescence intensity": "65.5 a.u."}
{"Modification": "2'F-ANA at 1 2 4 6 8 11 13 14 15", "mean fluorescence intensity": "49.3 a.u."}
{"Modification": "2'F-ANA at 1 2 3 5 7 9 10 11 12 13 14 15", "mean fluorescence intensity": "48.2 a.u."}
{"Modification": "2'F-ANA at 1 3 5 6 12 13 15", "mean fluorescence intensity": "99.5 a.u."}
{"Modification": "2'F-ANA at 4 10 14 15", "mean fluorescence intensity": "63.5 a.u."}
{"Modification": "2'F-ANA at 2 4 5 10 11 14", "mean fluorescence intensity": "45.2 a.u."}
{"Modification": "2'F-ANA at 2 8 10 13", "mean fluorescence intensity": "119 a.u."}
{"Modification": "2'F-ANA at 2 3 4 5 7 8 9 11 14 15", "mean fluorescence intensity": "88.6 a.u."}
{"Modification": "2'F-ANA at 1 2 3 11 13 14", "mean fluorescence intensity": "67.6 a.u."}
{"Modification": "2'F-ANA at 5 7 8 9 10 12 13 14 15", "mean fluorescence intensity": "59.6 a.u."}
{"Modification": "2'F-ANA at 2 7 9 10 11 13 15", "mean fluorescence intensity": "98.5 a.u."}
{"Modification": "2'F-ANA at 2 3 4 6 7 8 9 10 11 13", "mean fluorescence intensity": "202 a.u."}
{"Modification": "2'F-ANA at 2 3 4 8 9 12 13 15", "mean fluorescence intensity": "615 a.u."}
{"Modification": "2'F-ANA at 2 3 4 5 6 7 14 15", "mean fluorescence intensity": "48.8 a.u."}
{"Modification": "2'F-ANA at 1 3 4 5 6 9 11 13 15", "mean fluorescence intensity": "89.1 a.u."}
{"Modification": "2'F-ANA at 3 5 6 7 10", "mean fluorescence intensity": "56.8 a.u."}
{"Modification": "2'F-ANA at 1 2 3 4 5 6 7 9 10 11 14", "mean fluorescence intensity": "49.4 a.u."}
{"data": "Block 2", "target": "CCNB2, cyclin fold, Cln2 fusion (human)", "technique": "yeast growth competition, sequencing", "medium": "yeast", "notes": "strong parent motif", "reference": "not given", "reading": "higher = stronger binding", "starting sequence": "BRCA2 docking peptide (human); PSIKRNLLNEFDR; partner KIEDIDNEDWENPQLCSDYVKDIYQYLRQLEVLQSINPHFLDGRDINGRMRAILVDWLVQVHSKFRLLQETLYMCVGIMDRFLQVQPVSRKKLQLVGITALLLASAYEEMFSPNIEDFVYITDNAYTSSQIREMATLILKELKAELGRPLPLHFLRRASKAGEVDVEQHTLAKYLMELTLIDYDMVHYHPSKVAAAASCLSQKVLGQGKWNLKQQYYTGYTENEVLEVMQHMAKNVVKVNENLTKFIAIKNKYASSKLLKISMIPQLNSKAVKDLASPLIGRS"}
{"Substitution": "PSIKMNLLNEFDR [R5M]", "normalised enrichment score": 1.92}
{"Substitution": "PSIKRNLLNEFYR [D12Y]", "normalised enrichment score": 2.25}
{"Substitution": "PSICRNLLNEFDR [K4C]", "normalised enrichment score": 3.91}
{"Substitution": "PSILRNLLNEFDR [K4L]", "normalised enrichment score": 0.436}
{"Substitution": "GSIKRNLLNEFDR [P1G]", "normalised enrichment score": 3.37}
{"Substitution": "PSKKRNLLNEFDR [I3K]", "normalised enrichment score": 0.565}
{"Substitution": "PSIKRNDLNEFDR [L7D]", "normalised enrichment score": 0.0208}
{"Substitution": "ISIKRNLLNEFDR [P1I]", "normalised enrichment score": 3.52}
{"Substitution": "PSIKRWLLNEFDR [N6W]", "normalised enrichment score": 0.307}
{"Substitution": "PSIKRNLRNEFDR [L8R]", "normalised enrichment score": 0.331}
{"Substitution": "PSIKFNLLNEFDR [R5F]", "normalised enrichment score": -0.0855}
{"Substitution": "PSIKRNLLNEFPR [D12P]", "normalised enrichment score": 1.14}
{"Substitution": "PSIKRNLLNECDR [F11C]", "normalised enrichment score": -0.313}
{"Substitution": "PSIKRNLLNCFDR [E10C]", "normalised enrichment score": 0.457}
{"Substitution": "PSIKRNLLNEFDC [R13C]", "normalised enrichment score": 3.75}
{"Substitution": "PSIKRNLLNEMDR [F11M]", "normalised enrichment score": 0.984}
{"Substitution": "PSMKRNLLNEFDR [I3M]", "normalised enrichment score": 0.944}
{"Substitution": "PSIKRNELNEFDR [L7E]", "normalised enrichment score": 0.0729}
{"Substitution": "PSIKRNLHNEFDR [L8H]", "normalised enrichment score": 1.03}
{"Substitution": "PSIKRNPLNEFDR [L7P]", "normalised enrichment score": 0.12}
{"Substitution": "PSIKRNSLNEFDR [L7S]", "normalised enrichment score": -0.65}
{"Substitution": "PSIKRYLLNEFDR [N6Y]", "normalised enrichment score": 0.906}
{"Substitution": "PSIKRNLLNEEDR [F11E]", "normalised enrichment score": -0.315}
{"Substitution": "PYIKRNLLNEFDR [S2Y]", "normalised enrichment score": 2.46}
{"Substitution": "PSLKRNLLNEFDR [I3L]", "normalised enrichment score": 3.27}
{"data": "Block 3", "target": "Fragile X messenger ribonucleoprotein 1, C-terminal low-complexity region (Fmr1, Mus musculus, UniProt P35922)", "technique": "RNA Bind-n-Seq", "molecule type": "RNA", "medium": "in vitro", "tested at": "200 nM", "notes": "whole 134-nt RNA, ends assumed", "with": "150 mM LiCl", "reference": "input library", "reading": "higher = stronger binding", "library": "7-deaza-guanosine replaces G", "constant ends, left off below": "GGGAGUUCUACAGUCCGACGAUC … UGGAAUUCUCGGGUGUCAAGG"}
{"Oligonucleotide": "UGGGAGGUGGAUUUUGUUUAUUUUUUUAGCUCAUUUCCAGGGGUGGGAAUUUUUUUCUAAUAUGUGUCAUGAAUAAAGUUGUUUUUGAAA", "log2 enrichment": -0.361}
{"Oligonucleotide": "AGUCCUGUGCUACACAUCGUAUGUACCGAAUCGGGAGGGUUUUUGGGUUUUUUUGGGAAAGUAUUAUGUUACGCCGUUCGGAUCUGCACU", "log2 enrichment": -1.64}
{"Oligonucleotide": "GCAGGAAGUAAAAACAAAUGGAAAUGCUUCGGAUAGUGGCAGGGGUGGGGGUUGCUAAAGAAAGGGUGGGAUGGGAGUGGGUAAAGAGUU", "log2 enrichment": 1.8}
{"Oligonucleotide": "UCCUGUGCUACACAUCGUAUGUACCGAAUCGGGAAAAAAAGGGAAAAAAAGGGAAAGGGAAAGUAUUAUGUUACGCCGUUCGGAUCUGCA", "log2 enrichment": 0.38}
{"Oligonucleotide": "UUCCUCAAGUCCUGUGCUACACAUCGUAUGUACCGAAUCGGCGGCGGGCGGAAAGUAUUAUGUUACGCCGUUCGGAUCUGCACUUCCAGC", "log2 enrichment": 0.922}
{"Oligonucleotide": "GUCCUGUGCUACACAUCGUAUGUACCGAAUCGGAAAAAAAGGAAAAAGGAAAAAAAGGAAAGUAUUAUGUUACGCCGUUCGGAUCUGCAC", "log2 enrichment": -0.682}
{"Oligonucleotide": "UCAAGUCCUGUGCUACACAUCGUAUGUACCGAAUCGGGUGGGUUUUUGGGAGGGAAAGUAUUAUGUUACGCCGUUCGGAUCUGCACUUCC", "log2 enrichment": -0.545}
{"Oligonucleotide": "UAACUUUAGAGGAGGAUCUAAUGGAUAUGGCAGUGGACGUGGAUUUGGGGAUGGCUAUAAUGGGUAUGGAGGAGGACCUGGAGGUGGCAA", "log2 enrichment": 0.45}
{"Oligonucleotide": "CUCAAGUCCUGUGCUACACAUCGUAUGUACCGAAUCGGGGUGGGGUGGGGUGGAAAGUAUUAUGUUACGCCGUUCGGAUCUGCACUUCCA", "log2 enrichment": -1.09}
{"Oligonucleotide": "ACCAUGCAGGUGGGCAUCUUUGGGAAGUGGGGCAAGGGGGGGAUAGGGUGGGGGGUAACACUUUGGGAACAGGUGGUCCCAGGUCGUUUC", "log2 enrichment": 1.48}
{"Oligonucleotide": "ACCAUGCAGGUGGGCAUCUUUGGGAAGUGGGGCGAGGGGGGGAUAGGGAGGGGGGUAACACUUUGGGAACAGGUGGUCCCAGGUCGUUUC", "log2 enrichment": 1.41}
{"data": "Block 4", "target": "RING finger protein unkempt homolog, zinc fingers 1-6, GST-SBP tag (UNK, Homo sapiens, UniProt Q9C0B0, residues 30-357)", "technique": "RNA Bind-n-Seq", "molecule type": "RNA", "medium": "in vitro", "tested at": "not given", "notes": "RNA with constant flanks, human-mouse chimeric sites, ends assumed", "reference": "input RNA pool", "reading": "higher = stronger binding", "constant ends, left off below": "GGGAGUUCUACAGUCCGACGAUC … CAACAGAGGAUUGAGCAUCA", "chain of UniProt Q9C0B0 (30-357, looked up)": "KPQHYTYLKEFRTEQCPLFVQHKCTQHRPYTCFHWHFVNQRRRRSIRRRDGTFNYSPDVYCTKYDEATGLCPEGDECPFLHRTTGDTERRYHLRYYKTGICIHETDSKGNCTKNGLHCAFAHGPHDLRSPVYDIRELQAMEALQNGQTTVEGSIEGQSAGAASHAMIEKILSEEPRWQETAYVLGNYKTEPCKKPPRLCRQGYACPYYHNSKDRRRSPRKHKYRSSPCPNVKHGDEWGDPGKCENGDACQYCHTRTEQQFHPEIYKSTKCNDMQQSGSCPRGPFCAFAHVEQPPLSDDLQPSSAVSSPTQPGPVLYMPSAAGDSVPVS"}
{"Oligonucleotide": "CAGCGCCGAGGCCGCGGGUGCCCGCCGGGCCUCCCCAGCAGCAGCCAUGGGCAUCAAGUUUUUAGAAGUUAUCAAACCAUUCUGUGCAGUUCUACCAGAAAUUCAGAAACCGGAAAGGAA", "bound/input enrichment [ratio]": 0.835}
{"Oligonucleotide": "GAGUCGAGCAAACUUGAAACAAUUCGUUAUCUUGCAGCCUCAGUGUUUUUACUUGCCGCGAUAGCAUUGGGGUUUUAUAGGUUCUGGAAGGAGAACUGACGAUGAUGUCCUGCUGUGUGC", "bound/input enrichment [ratio]": 0.17}
{"Oligonucleotide": "ACAGUUAUACACUGUUGUUUCAUUUUCAUAUAUUCUUGUAGUGUCUGCUUGCCUGUGACUUCUGGUAAAAUAAAAUAAGCCUUUGAAAAUAUUUUAGAUUUAACAUUAACAUUUUCUAAA", "bound/input enrichment [ratio]": 6.73}
{"Oligonucleotide": "CGCUGGCCCAAGCUGAUGGACUCUGAUGGCCUCCAUCUCUCAGGCACGUGUGCCUUCUCUUAGUCCCUUCUGGGUUGAUGUUAUGAAUCUCAGUACUGUGGUUUGAAAGCACCAGCUUUG", "bound/input enrichment [ratio]": 0.296}
{"Oligonucleotide": "GACUUUGGGACUGGUCCUCGCAACGCAGCCUUCUAUAGCCCUCAUGGACAUAUAUUAGUAUUAGCUGGAUUUGGAAAUCUGAGGGGACAAAUGGAAGUAUGGGAUGUUAAAAACUACAAG", "bound/input enrichment [ratio]": 0.535}
{"Oligonucleotide": "UAAGUUAUUUUGUACAGCUUUGUAAAUUCUUAACAUUUUUAUAUUGCCAUGUUUAUUUUUUUUAGAUAAUUUGGUUCAUUAAGUACAUAGCUAAGGUAAUGAACAUCGUAAUUAUAGAUU", "bound/input enrichment [ratio]": 1.98}
{"Oligonucleotide": "AGAAUCUGUGACUGGCUUUACUUAAUUGGUCAUUGAUAGCUUAACAAACAUGGAGAUAAGAUUAGAAAUCUUGACAUCAACAAGUAUUAAGCAGAAAAAACCAUGGCCACGUGUCUCCUG", "bound/input enrichment [ratio]": 0.148}
{"Oligonucleotide": "GGACAUCUUGUCAGGAUUUAUGUUCCUGUGAAACAAGUGAACACUCUUCAUAUACUAAUCUGCUUGUACAUCUGUAUGAUAGAGAAAUGUAAAUAUGUUAAUCCAAGCAAUGUGUCACUU", "bound/input enrichment [ratio]": 0.26}
{"Oligonucleotide": "CCAAGUGAUUCAUCCCAAGGACAGGCCACCCCAUUUGAUGCCUGGACUGAUGACAGUAUGGAAGGGCCUAGUCAAAAUUUUGAAGCUGAGUCAAUUCAGGAUGCCAUGAGUAUGGAAGAG", "bound/input enrichment [ratio]": 0.218}
{"Oligonucleotide": "AAAGAACCUCUCUCUGAAGAAGAGGAAGACAGUGAUGAUGAUGUUGAACCCAUUUCUGAAUUUCGAUUUGUGCCCAGUGAUAAGUCAGCAUUGGAGGCGAUGUUCACAGCAAUGUGUGAG", "bound/input enrichment [ratio]": 0.219}
{"Oligonucleotide": "CUUCGGAAAAAAAAAUUACCUUUUCUGACAGUGCUUUCCCUCCCAUAGAUCCACGUUCACACUAGAAGAGCAAAGGCUUUGCACGGAGCUCAAACAUCUGAUGAAGAAAGAUUUCUGAGA", "bound/input enrichment [ratio]": 1.12}
